# Assay results from different studies.
# Numbered parts are unrelated; each lists some results of a single study. Changes are numbered by the printed parent chain.

# Sample 1 — method: universal PBM; form: double-stranded DNA, one strand shown; medium: in vitro; concentration: not given; reading: higher = stronger binding
# Target: Sal-like protein 4, full length isoform B (SALL4, Homo sapiens, UniProt Q9UJQ4-2, residues 1-616)
# Setting: 8-mer, flanks averaged, mean of replicates
Strand,E-score
CGTCTTGC,-0.0861
CACGCGAC,-0.155
ACGGCAAC,-0.0825
ACCCCGAA,-0.0667
AAATCGCC,-0.228

# Sample 2 — method: competition protein-binding microarray; form: double-stranded DNA, one strand shown; medium: in vitro; concentration: 2 µM; added: Pho4 competitor, 0.05 µM; reading: higher = stronger binding; shared flanks, not repeated: … GTCTTGATTCGCTTGACGCTGCTG
# Target: Centromere-binding protein 1, full length, His-tagged (CBF1, Saccharomyces cerevisiae, UniProt P17106, residues 1-351)
# Chain of UniProt P17106 (whole entry, looked up): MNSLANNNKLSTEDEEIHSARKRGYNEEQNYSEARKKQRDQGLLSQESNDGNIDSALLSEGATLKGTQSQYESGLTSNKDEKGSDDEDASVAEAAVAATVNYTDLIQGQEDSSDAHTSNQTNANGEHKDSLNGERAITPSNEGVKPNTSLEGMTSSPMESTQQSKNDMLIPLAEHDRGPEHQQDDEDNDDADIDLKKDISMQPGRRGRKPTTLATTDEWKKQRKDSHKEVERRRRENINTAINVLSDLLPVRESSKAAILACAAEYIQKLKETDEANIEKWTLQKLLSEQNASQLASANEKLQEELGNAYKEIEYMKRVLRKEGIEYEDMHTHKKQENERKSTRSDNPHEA
# Setting: whole 60-bp probe, lowest competitor level
Strand,fluorescence intensity
AAAAGCAAATTTTCACACGTGAAGAAGTAAGCTGTT,737 a.u.
CGGGCATGTTGCAAACGCGTGTGAAAAAAAAAGAGA,116 a.u.
CTACGGAAAAGGCCACACTTTTTTTCTGCAAGAAAA,89 a.u.
CTAACGAAGGTTTGACGAGTGGGTGACAAGCCAAGT,55.2 a.u.
CAGGGGGACTCATCTCTCGTGAAGATCCAGGCTATG,54.2 a.u.

# Sample 3 — target: CREBRF, bZIP domain (human); method: DHFR protein complementation; medium: yeast; baseline: wild-type JUN-FOS pair; reading: higher = stronger binding
# Setting: single substitutions, most at no-binding floor
# Parent: JUN, bZIP domain (human); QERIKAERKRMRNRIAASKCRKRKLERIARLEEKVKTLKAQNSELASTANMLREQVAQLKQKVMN; partner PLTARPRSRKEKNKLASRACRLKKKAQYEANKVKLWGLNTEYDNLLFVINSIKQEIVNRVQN
Variant,binding fitness [natural log]
S47I,-1.48
A57N,-1.67
M51R,-1.44
I28L,-1.29

# Other studies, line by line
Molecule,target,test,test system,conditions,scale,quantity,value
"PhoQ, residues 284 288 289 292 302 303 TTSMTC","PhoP, residues 12 14 15 18 19 AGCRL (Escherichia coli, UniProt P23836)","Sort-seq, item: YFP reporter",E. coli,"PhoQ-PhoP variant library, added: 10 µM Mg2+","baseline: high Mg2+ state, higher = stronger signaling",fold induction,11.7
